Measured values from different studies.
Each line is one published result; not all experiments were run side by side. ± marks the error that the study gave.
C5a: C5a (Homo sapiens, UniProt P01031)
UniProt P01031, sequence (whole entry, looked up): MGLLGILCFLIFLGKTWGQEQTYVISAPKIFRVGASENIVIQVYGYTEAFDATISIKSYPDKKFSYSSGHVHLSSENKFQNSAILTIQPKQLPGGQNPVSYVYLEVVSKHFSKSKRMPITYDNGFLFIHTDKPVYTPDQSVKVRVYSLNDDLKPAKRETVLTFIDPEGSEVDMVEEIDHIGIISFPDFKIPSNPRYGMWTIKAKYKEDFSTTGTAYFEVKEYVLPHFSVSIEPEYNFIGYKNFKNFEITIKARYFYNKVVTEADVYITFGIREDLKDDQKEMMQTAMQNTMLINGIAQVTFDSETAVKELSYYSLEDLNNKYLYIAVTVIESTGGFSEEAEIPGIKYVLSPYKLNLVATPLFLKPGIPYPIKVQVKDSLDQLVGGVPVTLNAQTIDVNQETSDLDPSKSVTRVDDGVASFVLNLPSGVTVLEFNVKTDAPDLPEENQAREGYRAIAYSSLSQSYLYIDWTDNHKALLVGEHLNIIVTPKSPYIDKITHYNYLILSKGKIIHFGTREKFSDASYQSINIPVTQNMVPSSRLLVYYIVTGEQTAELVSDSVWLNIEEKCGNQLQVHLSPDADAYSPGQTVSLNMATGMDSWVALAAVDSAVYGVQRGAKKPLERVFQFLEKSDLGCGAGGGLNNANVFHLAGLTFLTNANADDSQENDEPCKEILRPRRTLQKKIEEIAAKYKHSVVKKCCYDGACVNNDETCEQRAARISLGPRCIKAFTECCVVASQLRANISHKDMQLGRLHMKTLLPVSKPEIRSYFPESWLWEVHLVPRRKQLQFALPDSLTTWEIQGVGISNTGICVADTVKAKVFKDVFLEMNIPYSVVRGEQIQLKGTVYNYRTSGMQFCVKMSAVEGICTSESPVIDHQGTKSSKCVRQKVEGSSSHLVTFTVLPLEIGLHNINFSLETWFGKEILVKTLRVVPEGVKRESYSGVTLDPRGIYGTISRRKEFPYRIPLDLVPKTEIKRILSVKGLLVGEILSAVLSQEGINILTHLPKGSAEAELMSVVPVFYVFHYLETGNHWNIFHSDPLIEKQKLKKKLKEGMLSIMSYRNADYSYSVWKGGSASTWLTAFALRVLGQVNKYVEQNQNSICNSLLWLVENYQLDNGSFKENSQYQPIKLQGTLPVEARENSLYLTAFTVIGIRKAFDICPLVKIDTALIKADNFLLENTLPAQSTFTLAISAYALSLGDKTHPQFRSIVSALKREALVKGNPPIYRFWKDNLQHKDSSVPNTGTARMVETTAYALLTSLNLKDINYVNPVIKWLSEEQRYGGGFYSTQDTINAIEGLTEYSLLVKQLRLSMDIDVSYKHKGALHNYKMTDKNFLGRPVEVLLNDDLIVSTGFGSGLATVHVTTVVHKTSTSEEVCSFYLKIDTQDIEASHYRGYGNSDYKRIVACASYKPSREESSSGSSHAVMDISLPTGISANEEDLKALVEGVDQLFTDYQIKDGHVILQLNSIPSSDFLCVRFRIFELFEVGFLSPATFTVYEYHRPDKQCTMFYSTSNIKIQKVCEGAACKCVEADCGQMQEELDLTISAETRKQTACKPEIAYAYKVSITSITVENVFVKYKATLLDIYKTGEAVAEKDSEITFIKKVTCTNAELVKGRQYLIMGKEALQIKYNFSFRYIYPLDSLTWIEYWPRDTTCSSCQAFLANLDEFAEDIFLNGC
B1: UGT1A9 (Homo sapiens, UniProt O60656); chain GKLLVVPMDGSHWFTMRSVVEKLILRGHEVVVVMPEVSWQLGRSLNCTVKTYSTSYTLEDLDREFKAFAHAQWKAQVRSIYSLLMGSYNDIFDLFFSNCRSLFKDKKLVEYLKESSFDAVFLDPFDNCGLIVAKYFSLPSVVFARGILCHYLEEGAQCPAPLSYVPRILLGFSDAMTFKERVRNHIMHLEEHLLCHRFFKNALEIASEILQTPVTEYDLYSHTSIWLLRTDFVLDYPKPVMPNMIFIGGINCHQGKPLPMEFEAYINASGEHGIVVFSLGSMVSEIPEKKAMAIADALGKIPQTVLWRYTGTRPSNLANNTILVKWLPQNDLLGHPMTRAFITHAGSHGVYESICNGVPMVMMPLFGDQMDNAKRMETKGAGVTLNVLEMTSEDLENALKAVINDKSYKENIMRLSSLHKDRPVEPLDLAVFWVEFVMRHKGAPHLRPAAHDLTWYQYHSLDVIGFLLAVVLTVAFITFKCCAYGYRKCLGKKGRVKKAHKSKTH
UniProt P09874, sequence (whole entry, looked up): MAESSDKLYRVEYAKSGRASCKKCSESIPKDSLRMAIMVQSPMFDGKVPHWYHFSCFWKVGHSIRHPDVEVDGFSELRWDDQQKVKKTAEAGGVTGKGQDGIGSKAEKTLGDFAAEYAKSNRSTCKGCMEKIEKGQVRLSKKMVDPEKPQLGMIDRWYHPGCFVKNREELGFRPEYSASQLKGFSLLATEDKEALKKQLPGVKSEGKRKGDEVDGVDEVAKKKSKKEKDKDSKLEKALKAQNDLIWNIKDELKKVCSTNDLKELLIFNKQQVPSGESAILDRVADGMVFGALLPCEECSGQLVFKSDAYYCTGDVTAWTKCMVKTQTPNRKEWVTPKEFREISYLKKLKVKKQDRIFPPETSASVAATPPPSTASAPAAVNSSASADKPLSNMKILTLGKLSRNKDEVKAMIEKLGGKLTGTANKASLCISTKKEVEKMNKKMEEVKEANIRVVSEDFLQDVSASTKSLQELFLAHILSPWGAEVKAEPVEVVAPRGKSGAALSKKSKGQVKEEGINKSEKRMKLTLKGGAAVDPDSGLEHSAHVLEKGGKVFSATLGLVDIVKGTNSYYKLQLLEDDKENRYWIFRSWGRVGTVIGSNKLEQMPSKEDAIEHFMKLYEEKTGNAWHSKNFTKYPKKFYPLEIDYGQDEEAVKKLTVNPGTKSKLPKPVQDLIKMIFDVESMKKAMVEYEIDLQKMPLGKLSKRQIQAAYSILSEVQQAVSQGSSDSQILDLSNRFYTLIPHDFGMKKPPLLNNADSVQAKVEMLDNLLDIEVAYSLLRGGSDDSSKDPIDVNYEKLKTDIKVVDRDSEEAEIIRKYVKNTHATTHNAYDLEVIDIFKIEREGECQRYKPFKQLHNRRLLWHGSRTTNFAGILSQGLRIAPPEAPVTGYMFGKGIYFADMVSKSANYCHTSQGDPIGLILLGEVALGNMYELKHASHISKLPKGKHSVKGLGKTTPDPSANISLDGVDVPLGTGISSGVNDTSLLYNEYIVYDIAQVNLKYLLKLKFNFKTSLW
UniProt Q96FI4, sequence (whole entry, looked up): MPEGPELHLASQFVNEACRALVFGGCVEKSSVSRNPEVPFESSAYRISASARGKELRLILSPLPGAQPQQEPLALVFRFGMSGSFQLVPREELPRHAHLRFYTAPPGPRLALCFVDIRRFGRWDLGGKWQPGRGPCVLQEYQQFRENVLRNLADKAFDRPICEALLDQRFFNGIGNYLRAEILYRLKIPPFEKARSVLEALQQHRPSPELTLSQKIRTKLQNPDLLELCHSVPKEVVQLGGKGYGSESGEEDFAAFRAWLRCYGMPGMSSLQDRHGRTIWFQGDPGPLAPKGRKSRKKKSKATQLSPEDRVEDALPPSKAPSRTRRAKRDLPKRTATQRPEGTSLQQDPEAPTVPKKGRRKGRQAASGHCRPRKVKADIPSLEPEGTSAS
UniProt Q9BQB4, sequence (whole entry, looked up): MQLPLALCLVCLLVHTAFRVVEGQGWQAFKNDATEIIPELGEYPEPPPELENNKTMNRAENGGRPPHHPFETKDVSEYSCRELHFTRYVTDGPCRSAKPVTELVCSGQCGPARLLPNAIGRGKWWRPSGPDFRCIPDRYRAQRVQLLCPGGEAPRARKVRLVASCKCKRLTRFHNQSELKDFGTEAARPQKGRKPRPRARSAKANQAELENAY
UniProt O66659, sequence (whole entry, looked up): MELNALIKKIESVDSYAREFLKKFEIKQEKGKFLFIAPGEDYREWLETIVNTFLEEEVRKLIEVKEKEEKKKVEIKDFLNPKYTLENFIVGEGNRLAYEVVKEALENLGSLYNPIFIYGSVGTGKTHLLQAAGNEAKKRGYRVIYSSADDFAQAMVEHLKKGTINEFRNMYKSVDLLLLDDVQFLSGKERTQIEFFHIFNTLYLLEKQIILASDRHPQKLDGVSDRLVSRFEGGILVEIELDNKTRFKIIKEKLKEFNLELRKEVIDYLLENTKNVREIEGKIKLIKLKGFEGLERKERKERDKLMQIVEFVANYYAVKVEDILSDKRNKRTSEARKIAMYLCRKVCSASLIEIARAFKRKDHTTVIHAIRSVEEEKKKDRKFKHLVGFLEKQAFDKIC

Substance	tested on	test	test system	conditions	endpoint	value
GACGTCCTCGCATCAAGATGCTGCTGCCATCTTATATTTTCTATACAATAAGTATAGAAAATATAAGATGGCAGCAGCATCTTGATGCGAGGACGTCTA (dsDNA; hairpin, AATAA loop, 3' overhang 2-nt)	SPO11/TOP6BL (Mus musculus)	EMSA		without Mg2+	Kd	43.5 ± 2.15 nM
CGCTAGGATCNGGCCCCGCC / GGCGGGGCCGGATCCTAGCG (dsDNA; blunt, tetrahydrofuran abasic site opposite G)	NEIL1 full length assumed (Homo sapiens, UniProt Q96FI4)	EMSA		apparent, cooperative fit	Kd	18 nM
ACCGACCGTGCTGGACTCATCTCGCTTTTTTCACGGTCCACACTACTATGAGCGAGCCTGGCG (ssDNA; stem-loop)	CD274 fragment (Homo sapiens)	flow cytometry	MDA-MB-231 PD-L1 OE	1 h, 4 °C, not purified	Kd	15.4 nM
GCGGACGGACAGAGAGUGCAACCUGCCGUGCCGC (ssRNA; 2'-F pyrimidines, 5' thiol-C6)	ITGA5/ITGB1 on cells (Homo sapiens)	flow cytometry	RT112	apparent, no added Mg2+/Ca2+, not purified	Kd	467 ± 94 nM
GAGGCCCTTTCGTCTTCAAGAATTCTATTTGACAAAAATGGGCTCGTGTTGTACAATAAATGTGTCTAAGCTTGGGTCCCACCTGAC (dsDNA (Bacillus subtilis); blunt, A replaced by 7-deazaadenine)	RNA polymerase holoenzyme sigma70 (Escherichia coli)	EMSA	double-stranded DNA, one strand shown		Kd	35.5 ± 2.9 nM
CAACTGAGACCATGTACCCAGTTCGAATCGGATGTATATATCTGACACGTGCCTGGAGACTAGGGAGTAATCCCCTTGGCGGTTAAAACGCGGGGGACAGCGCGTACGTGCGTTTAAGCGGTGCTAGAGCTGTCTACGACCAATTGAGCGGCCTCGGCACCGGGATTCTCGATAACTCAGCAATAGTGGGTCTCA / ACCATGAGACCCACTATTGCTGAGTTATCGAGAATCCCGGTGCCGAGGCCGCTCAATTGGTCGTAGACAGCTCTAGCACCGCTTAAACGCACGTACGCGCTGTCCCCCGCGTTTTAACCGC / CAAGGGGATTACTCCCTAGTCTCCAGGCACGTGTCAGATATATACATCCGATTCGAACTGGGTACATGGTCTCA (nucleosome DNA; nicked bottom strand, 5'-OH)	PARP1 full length assumed (Homo sapiens, UniProt P09874)	optical tweezers		single molecule, not purified, together with: force 4 pN	Kd	3.9 ± 0.4 nM
B1 (UGT1A9)	Cc1ccc(O)cc1	steady-state kinetics		pH 7.4, 37 °C	Vmax/Km	25 µL/min/mg
CGGGGNGTGGGTTCGTCGTTAGCTTGATTTGGCAGCTGCC (XNA; 5-quinoline nucleotide position 6)	SOST 24-213 (Homo sapiens, UniProt Q9BQB4)	BLI			Kd	3.86 nM
GCCGAUGUGGUGGUGAAGGGUUGUUGGGUGUCGACGCACGGC (L-RNA; terminal stem, six DNA residues)	C5a	SPR			Kd	0.3 nM
GAGUUGAGUUGAGUUGAGUUGAGUUGAGUUGAGUUGAGUUGAGUUGAGUUGAGUU (ssRNA; single strand)	mtrB full length assumed K56A (Bacillus subtilis, UniProt P19466)	filter binding		together with: L-tryptophan 1 mM	Kd	35 ± 4 nM
TTTTTTTTTTTTTTTTTTTTTTTTTTTTTTTTTTTTTTTTTTTTTTTTTTTTTTCGGAGCGACGGCAGCGGT / ACCGCTGCCGTCGCTCCG (DNA duplex; 18 bp, 5' overhang, C6-amino-dT)	dnaA 77-399 (Aquifex aeolicus, UniProt O66659)	EMSA		together with: ADP-BeF3	Kd	1600 nM
GCGAUGUGGUGGUGAAGGGUUGUUGGGUGUCGACGCACGC (L-RNA; terminal stem, six DNA residues)	C5a	SPR			Kd	0.4 nM

Some of these lines once more:
Substance	tested on	test	test system	conditions	endpoint	value
GCCGAUGUGGUGGUGAAGGGUUGUUGGGUGUCGACGCACGGC (L-RNA; terminal stem, six DNA residues)	C5a	SPR			Kd	0.3 nM
GCGAUGUGGUGGUGAAGGGUUGUUGGGUGUCGACGCACGC (L-RNA; terminal stem, six DNA residues)	C5a	SPR			Kd	0.4 nM
